Assay results from different studies.
PLK3: Serine/threonine-protein kinase PLK3 (PLK3, Homo sapiens, UniProt Q9H4B4)

SMILES	target or system	assay	test system	setting	how to read	endpoint	value
Nc1ncc(-c2cc(-c3cnn(CC(F)(F)F)c3)ncc2F)nc1C(=O)NC1CNCC(F)C1 (stereo not drawn)	PLK3	enzyme activity	–	1 µM	baseline: DMSO control	remaining activity	105%
Cc1ccc(-c2c(/C=C(\C#N)C(=O)NC(C)C)n(CCCO)c3ncnc(N)c23)cc1	PLK3	cell-free assay, competition with immobilised ligand	–	1 µM	–	remaining binding	86%
Cc1nn(C(C)C)c(C)c1CN1CCCC(CCC(=O)NCc2ccccc2F)C1 (stereo not drawn)	Trypanosoma cruzi	reporter mRNA translation, inhibitor, measured: capped polyadenylated Renilla luciferase mRNA	cell-free extract	concentration not given	baseline: control RNA	relative translation	97%
Cc1nc2c(F)cc(-c3nc(Nc4ccc(CNC(=O)CCCCCCC(=O)NO)cc4)ncc3F)cc2n1C(C)C	PLK3	enzyme activity, inhibitor	–	1 µM	–	inhibition	56%
Nc1ncc2c(n1)-c1c([nH]c3ccc(C4=CCOCC4)cc13)CCC2	PLK3	binding, competition with immobilised ligand	–	1 µM	–	remaining binding	96%
COc1ccc(NC(=O)Nc2ccc3c(c2)C(=O)N(C(C)CO)CC(C)C(CN(C)Cc2ccc4c(c2)OCO4)O3)cc1 (stereo not drawn)	PLK3	kinase activity, KinaseProfiler	–	0.03 µM, species human	baseline: control	remaining activity	107%
C=CC(=O)N1Cc2nc(-c3cc(-c4cc(Cl)cnc4Cl)c(F)cc3F)n(-c3ccncn3)c2C1	PLK3	cell-free assay, inhibitor	–	1 µM	–	inhibition	11.1%
C=C1CCCCCCCCCC(CO)C1=O (stereo not drawn)	PLK3	cell-free assay, competition with immobilised ligand	–	10 µM	–	remaining binding	92%
C=CC(=O)Nc1cccc(-c2cnc3[nH]cc(C(=O)NC(C)(C)C)c3n2)c1	PLK3	kinase activity	–	0.1 µM	–	inhibition	14%
COc1c(OCCCN2CCOCC2)ccc2c1N=C(NC(=O)c1cnc(N)nc1)N1CCN=C21	PLK3	kinase activity, inhibitor	–	1 µM	baseline: untreated control	remaining activity	91%
CN1CCN(Cc2ccc(NC(=O)c3cccc(C#Cc4cnc(N)c5ncccc45)c3)cc2C(F)(F)F)CC1	PLK3	cell-free assay, competition with immobilised ligand	–	50 nM	–	remaining binding	81%
COc1cc(Nc2nc(C)cc(-c3cnn4nc(OC)ccc34)n2)cc(C(F)(F)F)c1	PLK3	inhibitor	–	1 µM	baseline: control	remaining activity	72%
CC(C)=CC1OC(C)(C)C2C=C3C(=O)C(Cl)=CC(O)C3C3C(O)C4OC4C(=O)C132 (stereo not drawn)	PLK3	cell-free assay, competition with immobilised ligand	–	10 µM	–	remaining binding	67%
CN1C[C@@H](c2c[nH]c3cc(Br)ccc23)NC[C@@H]1c1c[nH]c2cc(Br)ccc12	PLK3	enzyme activity, inhibitor	–	10 µM	–	remaining activity	157%
O=C(Cc1ccc(OCc2ccccc2)cc1)NC1(C(=O)O)CCN(C(=O)c2ccc(-c3cccc(Cl)c3)cc2)CC1	PLK3	enzyme activity, inhibitor	–	10 µM	–	activity vs control	99%
CNC1C[S+]2CC[S+]3CC[S+](C1)[Ru-4]321([N]=C=S)[n]2c3ccc(OC)cc3c3c4c(c5cc(F)c[n+]1c5c32)C(=O)NC4=O (stereo not drawn)	PLK3	KinomeScan	–	0.1 µM	baseline: untreated	remaining binding	58%
NC(=O)C[C@H]1CCc2sc3ncnc(O[C@H]4CC[C@H](N5CCOCC5)CC4)c3c21	PLK3	enzyme activity, inhibitor	–	10 µM	–	inhibition	2%
COc1cc(CN(C)CCc2ccccc2)ccc1OCc1ccccc1	Trypanosoma cruzi	reporter mRNA translation, inhibitor, measured: capped polyadenylated Renilla luciferase mRNA	cell-free extract	concentration not given	baseline: control RNA	relative translation	117%
C=CC(=O)N1CCc2ccc(-n3c(=O)ccc4cnc5ccc(-c6cnn(C)c6)cc5c43)cc21	PLK3	KINOMEscan	–	1 µM	baseline: DMSO control	remaining binding	100%
Cc1cccc(O[C@H]2CCC[C@@H](C(C)CNCc3ccncc3)C2)c1 (relative stereo)	PLK3	enzyme activity, inhibitor	–	1 µM	–	inhibition	-8%
COc1c(Cl)cccc1Nc1c(-c2ccncc2C#C[C@@]2(C)CCCN2C(=O)/C=C/CN(C)C)[nH]c2c1C(=O)NCC2	PLK3	binding, competition with immobilised ligand	–	3 µM	–	remaining binding	94%

For quick reference, copied from above:
SMILES	target or system	assay	test system	setting	how to read	endpoint	value
Cc1ccc(-c2c(/C=C(\C#N)C(=O)NC(C)C)n(CCCO)c3ncnc(N)c23)cc1	PLK3	cell-free assay, competition with immobilised ligand	–	1 µM	–	remaining binding	86%
COc1c(Cl)cccc1Nc1c(-c2ccncc2C#C[C@@]2(C)CCCN2C(=O)/C=C/CN(C)C)[nH]c2c1C(=O)NCC2	PLK3	binding, competition with immobilised ligand	–	3 µM	–	remaining binding	94%
